{"data": "Measurements from different studies", "CYP2C19": "Cytochrome P450 2C19 (CYP2C19, Homo sapiens, UniProt P33261)", "note": "Protocols differ between the studies behind these lines. ± marks the error that the study gave.", "sequence of UniProt P33261 (whole entry, looked up)": "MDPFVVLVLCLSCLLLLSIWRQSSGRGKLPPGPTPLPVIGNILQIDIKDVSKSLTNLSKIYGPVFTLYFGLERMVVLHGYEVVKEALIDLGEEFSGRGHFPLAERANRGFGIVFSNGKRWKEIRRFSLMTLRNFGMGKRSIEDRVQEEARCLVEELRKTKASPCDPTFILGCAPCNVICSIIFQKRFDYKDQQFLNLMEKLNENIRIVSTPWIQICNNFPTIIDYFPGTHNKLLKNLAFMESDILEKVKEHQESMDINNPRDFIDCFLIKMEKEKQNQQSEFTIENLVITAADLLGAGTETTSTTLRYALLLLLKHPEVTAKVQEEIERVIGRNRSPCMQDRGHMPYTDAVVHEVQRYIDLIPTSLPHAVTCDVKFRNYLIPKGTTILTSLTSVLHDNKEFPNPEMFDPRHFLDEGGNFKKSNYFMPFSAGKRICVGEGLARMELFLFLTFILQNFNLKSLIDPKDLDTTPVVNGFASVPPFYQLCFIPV", "sequence of UniProt Q06520 (whole entry, looked up)": "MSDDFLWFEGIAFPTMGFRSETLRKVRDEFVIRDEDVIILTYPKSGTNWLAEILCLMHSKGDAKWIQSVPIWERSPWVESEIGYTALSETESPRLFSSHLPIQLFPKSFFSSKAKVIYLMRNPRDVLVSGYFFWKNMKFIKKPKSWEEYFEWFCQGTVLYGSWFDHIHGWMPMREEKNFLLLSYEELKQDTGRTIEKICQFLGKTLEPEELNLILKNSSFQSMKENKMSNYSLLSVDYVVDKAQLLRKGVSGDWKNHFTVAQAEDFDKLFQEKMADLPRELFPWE", "sequence of UniProt P10632 (whole entry, looked up)": "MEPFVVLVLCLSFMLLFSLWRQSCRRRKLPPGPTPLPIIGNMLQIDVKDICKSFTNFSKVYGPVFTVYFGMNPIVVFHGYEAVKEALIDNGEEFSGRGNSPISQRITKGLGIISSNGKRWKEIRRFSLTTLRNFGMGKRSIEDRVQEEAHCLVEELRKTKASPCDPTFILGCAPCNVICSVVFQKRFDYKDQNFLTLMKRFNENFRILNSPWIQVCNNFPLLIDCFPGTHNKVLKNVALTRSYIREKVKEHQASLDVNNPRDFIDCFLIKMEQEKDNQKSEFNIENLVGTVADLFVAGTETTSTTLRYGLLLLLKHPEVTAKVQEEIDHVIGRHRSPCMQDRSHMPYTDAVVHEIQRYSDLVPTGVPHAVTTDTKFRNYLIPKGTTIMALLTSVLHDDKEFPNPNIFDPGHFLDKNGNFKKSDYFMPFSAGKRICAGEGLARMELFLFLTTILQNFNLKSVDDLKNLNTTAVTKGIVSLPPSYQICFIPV", "sequence of UniProt O60656 (whole entry, looked up)": "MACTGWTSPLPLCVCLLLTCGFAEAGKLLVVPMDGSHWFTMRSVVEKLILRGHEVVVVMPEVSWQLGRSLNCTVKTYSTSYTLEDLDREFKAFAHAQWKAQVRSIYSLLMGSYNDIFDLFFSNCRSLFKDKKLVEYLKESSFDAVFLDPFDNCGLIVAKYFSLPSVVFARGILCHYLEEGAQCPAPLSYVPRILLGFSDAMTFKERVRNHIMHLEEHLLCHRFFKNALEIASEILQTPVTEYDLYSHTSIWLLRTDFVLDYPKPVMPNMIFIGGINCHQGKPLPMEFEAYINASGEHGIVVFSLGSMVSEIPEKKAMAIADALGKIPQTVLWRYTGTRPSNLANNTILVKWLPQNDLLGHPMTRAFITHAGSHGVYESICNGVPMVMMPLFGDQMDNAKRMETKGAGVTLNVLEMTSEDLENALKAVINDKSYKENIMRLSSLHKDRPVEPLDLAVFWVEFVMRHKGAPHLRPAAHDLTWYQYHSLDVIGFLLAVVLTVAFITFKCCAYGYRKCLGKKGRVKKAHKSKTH"}
{"Structure (SMILES)": "CCC(=O)N(C)c1ccc(Cl)c(Cl)c1", "tested on": "Salmonella typhimurium", "assay": "Ames test", "system": "TA98", "conditions": "1.00 mg/plate, without S9 activation", "measurement": "revertants", "value": "5 ± 0.6 revertants/plate"}
{"Structure (SMILES)": "O=C(O)CCC(NP(=O)(O)OCCC[C@@H](NC(=O)CCC(NC(=O)CCCCCNC(=O)CCCCCNC(=O)c1ccc([18F])cc1)C(=O)O)C(=O)O)C(=O)O (some centres unmarked)", "tested on": "CWR22Rv1 tumour model", "system": "host not given, spleen", "conditions": "intravenous, 2 h, tumour-bearing", "measurement": "tracer uptake", "value": "0.19 %ID/g"}
{"Structure (SMILES)": "[64Cu+2].c1ccc(CNCc2ccc(CN3CCCNCCNCCCNCC3)cc2)nc1", "tested on": "CXCR4", "system": "NOD/SCID mouse, tumour", "conditions": "90 min", "how to read": "reference: U87-stb-CXCR4 over U87", "measurement": "uptake ratio", "value": "6.44 ± 2.45"}
{"Structure (SMILES)": "CC(=O)N[C@@H](CO)C(=O)N[C@@H](CC(=O)O)C(=O)N[C@@H](CCCCNC(=O)CCCC[C@@H]1SC[C@@H]2NC(=O)N[C@@H]21)C(=O)N1CCC[C@H]1C(=O)O", "tested on": "A549", "assay": "flow cytometry", "conditions": "40 µg/mL, 30 min, 37 °C", "how to read": "reference: cells", "measurement": "cellular uptake", "value": "34.7 ± 2.1%"}
{"Structure (SMILES)": "COc1ccc(CCNc2cc(-c3ccccc3)nc3ncnn23)cc1", "system": "human liver microsomes", "measurement": "intrinsic clearance", "value": "3 mL/min/g"}
{"Structure (SMILES)": "CC[C@H](C)C(=O)N1CCC(NC(=O)Nc2ccc(OC(F)(F)F)c(F)c2)CC1", "system": "healthy volunteers", "conditions": "oral, 16 mg single dose, 14 (unit not given)", "measurement": "subjects with moderate TEAE", "value": "0%"}
{"Structure (SMILES)": "CN[C@](C)(C[18F])C(=O)O", "tested on": "SK-OV-3 tumour model", "system": "host not given, bone", "conditions": "30 min, tumour-bearing", "measurement": "tracer uptake", "value": "2.5 %ID/g"}
{"Structure (SMILES)": "O=C(O)CCC(NP(=O)(O)OCCC[C@@H](NC(=O)CCC(NC(=O)c1ccc([18F])cc1)C(=O)O)C(=O)O)C(=O)O (some centres unmarked)", "tested on": "CWR22Rv1 tumour model", "system": "host not given, liver", "conditions": "intravenous, 1 h, tumour-bearing", "measurement": "tracer uptake", "value": "0.83 %ID/g"}
{"Structure (SMILES)": "CC(C)[C@H](NC(=O)CNC(=O)[C@H](CCC(N)=O)NC(=O)[C@H](C)N)C(=O)O", "system": "human", "conditions": "3 mg/kg single dose", "measurement": "subjects with severe adverse events", "value": "0%"}
{"Structure (SMILES)": "CN(C)C(CNC(=O)Nc1cc(C(F)(F)F)ccc1N1CCOCC1)c1ccncc1 (centres unmarked)", "system": "mouse, serum", "conditions": "intraperitoneal, 240 mg/kg single dose", "measurement": "serum anion gap", "value": "20 mmol/L"}
{"Structure (SMILES)": "COc1ccc2c(=O)c(OC)c(-c3ccc(OC)c(OC)c3)oc2c1", "tested on": "differentiated SH-SY5Y", "assay": "MTT", "conditions": "0.1 µM", "how to read": "reference: control", "measurement": "viability", "value": "103 ± 4%"}
{"Structure (SMILES)": "Nc1nc2c([C@@H]3O[C@@H]4COP(=O)(O)O[C@H]5[C@@H](O)[C@H](c6snc7c(=O)[nH]c(N)nc67)O[C@@H]5COP(=O)(O)O[C@H]4[C@H]3O)snc2c(=O)[nH]1", "system": "water", "measurement": "molar absorption coefficient", "value": "8770 M⁻¹ cm⁻¹"}
{"Structure (SMILES)": "c1cc2c(s1)CCOC21CCN(Cc2ccc3c(c2)OCCO3)CC1", "assay": "CLND", "system": "phosphate-buffered saline", "conditions": "1 (unit not given), pH 7.4", "measurement": "kinetic solubility", "value": "≥ 260 µM"}
{"Structure (SMILES)": "N[C@]1(c2ccccc2Cl)CCC[C@H](O)C1=O", "system": "Wistar rat, plasma", "conditions": "intravenous, 20 mg/kg, 20 min", "measurement": "plasma concentration", "value": "8340 ± 606 ng/mL"}
{"Structure (SMILES)": "C=C(C)[C@@H]1CCC(CO)=C[C@H]1c1c(O)cc(CCCCC)cc1O", "tested on": "CYP2C19", "conditions": "concentration not given, single dose, added: fluconazole steady state", "measurement": "decrease in AUC(0-tau)", "value": "29%"}
{"Structure (SMILES)": "C[C@@](O)(C(F)F)[C@H](NC(=O)c1ccc(C#CC#CC2CC2)cc1)C(=O)NO", "system": "beagle dogs", "conditions": "oral, 50 mg/kg", "measurement": "apparent volume of distribution (Vz/F)", "value": "8.5 ± 5.9 L/kg"}
{"Structure (SMILES)": "COc1ccc(CNc2nc(N3CCC[C@H]3CO)ncc2C(=O)NNC(=O)c2cnc(N3CCC[C@H]3CO)nc2NCc2ccc(OC)c(Cl)c2)cc1Cl", "tested on": "Salmonella typhimurium", "system": "TA97a", "conditions": "500 µg/plate, 48 h", "measurement": "revertant count", "value": "129 ± 26"}
{"Structure (SMILES)": "CO/C(=C\\C(=O)c1ccc2occc2c1OC)c1ccccc1", "tested on": "differentiated SH-SY5Y", "assay": "MTT", "conditions": "1 µM", "how to read": "reference: control", "measurement": "viability", "value": "101 ± 11.1%"}
{"Structure (SMILES)": "C[C@]12CC[C@H](O)CC1CCC1C2[C@H](O)C(=O)[C@]2(C)[C@@H](c3ccc(=O)oc3)CC[C@]12O (some centres unmarked)", "tested on": "SULT2A1 (Homo sapiens, UniProt Q06520)", "assay": "sulfation, substrate", "system": "human kidney cytosol", "conditions": "pH 7.4", "how to read": "reference: liver cytosol over kidney cytosol", "measurement": "activity ratio", "value": "31.1 fold"}
{"Structure (SMILES)": "COc1cc2c(=O)cc(-c3ccccc3)oc2c2c1OC(C)(C)C=C2", "tested on": "differentiated SH-SY5Y", "assay": "MTT", "conditions": "1 µM", "how to read": "reference: control", "measurement": "viability", "value": "99.1 ± 3.2%"}
{"Structure (SMILES)": "CN(C)CC1CCCCC1(O)c1cccc(O)c1 (centres unmarked)", "tested on": "human P-glycoprotein", "system": "Caco-2 TC7 monolayer", "conditions": "50 µM, 3 h, apical pH 7.4, basolateral pH 7.4, added: cyclosporine A 10 µM", "how to read": "reference: B-to-A over A-to-B", "measurement": "efflux ratio", "value": 1.3}
{"Structure (SMILES)": "O=C(O)CCC(NP(=O)(O)OCCC[C@@H](NC(=O)CCC(NC(=O)CCCCCNC(=O)c1ccc([18F])cc1)C(=O)O)C(=O)O)C(=O)O (some centres unmarked)", "tested on": "CWR22Rv1 tumour model", "system": "host not given, bone", "conditions": "intravenous, 1 h, tumour-bearing", "measurement": "tracer uptake", "value": "0.38 %ID/g"}
{"Structure (SMILES)": "COc1ccc(CNc2nc(N3CCC[C@H]3CO)ncc2C(=O)NN)cc1Cl", "tested on": "Salmonella typhimurium", "system": "TA1535", "conditions": "62.5 µg/plate, 48 h", "measurement": "revertant count", "value": "56 ± 2"}
{"Structure (SMILES)": "C=C(C)[C@@H]1CCC(C(=O)O)=C[C@H]1c1c(O)cc(CCCCC)cc1O", "tested on": "CYP2C19", "conditions": "concentration not given, single dose, added: fluconazole 200 mg once daily", "measurement": "half-life", "value": "27.1 h"}
{"Structure (SMILES)": "CNC(=O)Oc1cc(C)c([S+](C)[O-])c(C)c1 (centres unmarked)", "tested on": "Cytochrome P450 2C8 (CYP2C8, Homo sapiens, UniProt P10632)", "system": "human liver microsomes", "conditions": "10 µM, pH 7.4, added: paclitaxel", "measurement": "inhibition", "value": "< 0%"}
{"Structure (SMILES)": "CCCCCc1cc(O)c2c(c1)OC(C)(C)C1CCC(C)=CC21 (single isomer, unassigned; (-))", "tested on": "UGT1A9 (Homo sapiens, UniProt O60656)", "assay": "propofol glucuronidation, inhibitor", "system": "HEK293 microsomes", "conditions": "added: propofol", "how to read": "reference: UGT1A9 over UGT2B7", "measurement": "IC50 ratio", "value": "6 fold"}
{"Structure (SMILES)": "Nc1nc2c([C@@H]3O[C@@H]4COP(=O)(O)O[C@H]5[C@@H](O)[C@H](n6cnc7c(=O)[nH]c(N)nc76)O[C@@H]5COP(=O)(O)O[C@H]4[C@H]3O)snc2c(=O)[nH]1", "system": "water", "measurement": "molar absorption coefficient", "value": "4380 M⁻¹ cm⁻¹"}
{"Structure (SMILES)": "COc1cc(C(=O)NCCOCCOCCOCCNC(=O)c2ccc([18F])nc2)ccc1NC(=O)C1NC(CC(C)(C)C)C(C#N)(c2ccc(Cl)cc2F)C1c1cccc(Cl)c1F (centres unmarked)", "tested on": "HepG2 tumour model", "system": "host not given, kidney", "conditions": "4 h, tumour-bearing", "measurement": "tracer uptake", "value": "1.01 %ID/g"}
{"Structure (SMILES)": "CSCC[C@@H]1NC(=O)[C@@H]2CSSC[C@H](NC(=O)[C@H](CO)NC(=O)[C@H](C)N)C(=O)N[C@@H](CCCNC(=N)N)C(=O)N[C@@H]([C@@H](C)O)C(=O)N3CCC[C@H]3C(=O)N[C@@H](CCCCN)C(=O)N[C@@H](CC(=O)O)C(=O)N[C@H]3CSSC[C@H](NC(=O)[C@H](CCCCN)NC(=O)[C@H](CCCNC(=N)N)NC(=O)[C@H](CC(N)=O)NC1=O)C(=O)N[C@@H](CCCCN)C(=O)N[C@H]1CSSC[C@H](NC(=O)[C@@H]4CCCN4C(=O)[C@H](CC(=O)O)NC(=O)[C@H](C)NC3=O)C(=O)N[C@@H](C)C(=O)N[C@@H](CCCCN)C(=O)N[C@@H](CCC(=O)O)C(=O)N[C@@H]([C@@H](C)O)C(=O)NCC(=O)N[C@@H](CSSC[C@@H](C(N)=O)NC(=O)[C@H](CCCNC(=N)N)NC(=O)[C@H](CC(N)=O)NC1=O)C(=O)N1CCC[C@H]1C(=O)N[C@@H](Cc1ccc(O)cc1)C(=O)NCC(=O)N[C@@H](CCCCN)C(=O)N2", "system": "DA rat, pristane-induced arthritis, serum", "conditions": "subcutaneous, single 0.1 mg/kg at onset, end of 21-day trial", "measurement": "alkaline phosphatase", "value": "52 U/L"}
